Measurements collected from several papers.
Lines come from different studies, so protocols differ. Numbers after ± are the reported error.

With `CC[C@H](C)[C@H](NC(=O)[C@H](CCCNC(=N)N)NC(=O)[C@H](CCCNC(=N)N)NC(=O)[C@H](CC(C)C)NC(=O)CNC(=O)[C@H](CCC(N)=O)NC(=O)[C@@H](NC(=O)[C@@H](NC(=O)[C@H](Cc1c[nH]c2ccccc12)NC(=O)[C@@H](NC(=O)[C@H](CCC(=O)O)NC(=O)[C@@H]1CCCN1C(=O)[C@@H](N)CCCNC(=N)N)[C@@H](C)CC)[C@@H](C)CC)[C@@H](C)O)C(=O)NCC(=O)N[C@@H](CC(=O)O)C(=O)N[C@@H](CCC(=O)O)C(=O)N[C@@H](Cc1ccccc1)C(=O)N[C@@H](CC(N)=O)C(=O)N[C@@H](C)C(=O)N[C@@H](Cc1ccc(O)cc1)C(=O)N[C@@H](Cc1ccc(O)cc1)C(=O)N[C@@H](C)C(=O)N[C@@H](CCCNC(=N)N)C(N)=O` the EC50 was 12000 ± 8000 nM (Pfeiffer, permeabilized; mitochondrial depolarization, BH3 profiling, JC-1; 3 h).
The EC50 of `C[C@H](Nc1ccc2c(c1)OCCn1cc(N3C(=O)OC[C@H]3C(F)F)nc1-2)C(N)=O` is reported as 2190 nM (SNU-1076; cell growth, CellTiter-Glo; 120 h).
`C=C(NC(=O)C(=C)NC(=O)c1csc(C2=N[C@@H]3c4csc(n4)[C@H]4NC(=O)c5csc(n5)[C@H]([C@](C)(O)[C@@H](C)O)NC(=O)[C@H]5CSC(=N5)/C(=C/C)NC(=O)[C@H]([C@@H](C)O)NC(=O)c5csc(n5)[C@]3(CC2)NC(=O)[C@H](C)NC(=O)C(=C)NC(=O)[C@H](C)NC(=O)[C@H]([C@@H](C)CC)N[C@@H]2C=Cc3c([C@H](C)O)cc(nc3[C@H]2O)C(=O)O[C@@H]4C)n1)C(N)=O` has an EC50 of 300 nM (OCI; cell viability).
`CC[C@H](C)[C@H](NC(=O)[C@H](CCC(=O)O)NC(=O)[C@H](CC(=O)O)NC(=O)CNC(=O)[C@H](CC(C)C)NC(=O)[C@H](CCCNC(=N)N)NC(=O)[C@H](CCC(N)=O)NC(=O)[C@H](CC(C)C)NC(=O)[C@H](Cc1c[nH]cn1)NC(=O)[C@H](CCC(N)=O)NC(=O)[C@@H](NC(=O)[C@H](CC(C)C)NC(=O)[C@H](Cc1c[nH]c2ccccc12)NC(=O)[C@@H](NC(=O)[C@H](CCC(=O)O)NC(=O)[C@@H]1CCCN1C(=O)[C@@H](N)CCCNC(=N)N)[C@@H](C)CC)[C@@H](C)O)C(=O)N[C@@H](CC(N)=O)C(=O)N[C@@H](C)C(=O)N[C@@H](Cc1ccc(O)cc1)C(=O)N[C@@H](Cc1ccc(O)cc1)C(=O)N[C@@H](C)C(=O)N[C@@H](CCCNC(=N)N)C(N)=O` has an EC50 of 3100 ± 2600 nM (Pfeiffer, permeabilized; mitochondrial depolarization, BH3 profiling, JC-1; 3 h).
With `CC1=C(CC(=O)O)c2cc(F)ccc2/C1=C\c1ccc([S+](C)[O-])cc1` (centres unmarked) the EC50 was > 100000 nM (MM1.S bortezomib-resistant; cell death).
`Cc1ccc2c(c1)C(=O)[C@]1(O)CCN(c3ccc4nc(C)ccc4c3)C1=N2` gave an EC50 of 1000 to 5000 nM (glioblastoma cell lines (human, mouse); cytotoxicity, CellTiter-Glo; 120 h).
`Cc1cc(NC(=O)c2cccc(NC(=O)/C=C/CN(C)C)c2)ccc1Nc1nccc(-c2cccnc2)n1` has an EC50 of ~500 nM (SH-SY5Y MKK7 ACT; c-Jun Ser73 phosphorylation, western blot; 6 h, together with: doxycycline).
The EC50 of `COc1cnc2cccc(N3CCc4c(cc(Cn5ccnc5C)cc4-c4cn(C)nc4C(F)(F)F)C3=O)c2c1` is reported as 940 nM (KLE; cell growth, inhibitor; 120 h).
The EC50 of `C[C@]12CCCN1CC1=NNC(=O)c3cc(F)cc4[nH]c2c1c34` is reported as > 3000 nM (SW1417 colorectal cancer cells; cell viability; concentration not given, together with: with temozolomide).
Under “log2 fold change”, `Cn1cc(-c2ccc(-c3cncc(Cl)c3N3CCC4(CCNC4=O)CC3)cc2)cn1` is recorded as 2.11 (COLO 205; gene expression, microarray, item: RPL37 mRNA; concentration not given, 2 h; relative to: untreated cells).
For `O=C(Cc1cccnc1)Nc1ccc(C2CCCCC2)cc1`, the hepatic clearance was 28 mL/min/kg (cynomolgus liver microsomes; 1 µM).
The EC50 of `CCn1cc(-c2cc(Cn3ccoc3=N)cc3c2CCN([C@@H](C)c2cc(OC)ccn2)C3=O)c(C(F)(F)F)n1` is reported as 181 nM (Li-7; cell growth, inhibitor; 120 h).
`O=C(Nc1ccc([C@H]2[C@@H](F)[C@@H](F)C[C@@H](F)[C@H]2F)cc1)c1cn[nH]c1` has a hepatic clearance of 7.4 mL/min/kg (cynomolgus liver microsomes; 1 µM).
The EC50 of `[Cl-].[Cl-].[Os+2].c1cnc2c(c1)ccc1cccnc12.c1cnc2c(c1)ccc1cccnc12.c1cnc2c(c1)ccc1cccnc12` is reported as 86100 ± 4200 nM (SK-MEL-28; phototoxicity, resazurin; normoxia, together with: green light 523 nm, 100 J/cm2, 20 mW/cm2).

For quick reference, copied from above:
Under “log2 fold change”, `Cn1cc(-c2ccc(-c3cncc(Cl)c3N3CCC4(CCNC4=O)CC3)cc2)cn1` is recorded as 2.11 (COLO 205; gene expression, microarray, item: RPL37 mRNA; concentration not given, 2 h; relative to: untreated cells).
